Measured values pooled from the literature.
Parts stem from different laboratories: compare values within a part only.

Sample 1
Partner: ARF9 519-638 (Arabidopsis thaliana, UniProt Q9XED8)
Technique: two-hybrid
Notes: weak activation fusion
Reference: out of 4 tests
Direction: higher = firmer interaction
B1: IAA34 (Arabidopsis thaliana, UniProt Q9C5X0); chain MYCSDPPHPLHLVASDKQQKDHKLILSWKKPTMDSDPLGVFPNSPKYHPYYSQTTEFGGVIDLGLSLRTIQHEIYHSSGQRYCSNEGYRRKWGYVKVTMDGLVVGRKVCVLDHGSYSTLAHQLEDMFGMQSVSGLRLFQMESEFCLVYRDEEGLWRNAGDVPWNEFIESVERLRITRRNDAVLPF
B2: IAA32 (Arabidopsis thaliana, UniProt Q8RYC6); chain MDPNTPADFFKGSSKFHTYYSQTKKGGGVIDLGLSLRTIQHETYLPPARMIGLDGYGELIDWSQPSYNSITQLKSEDTGHQRLAQGYYNNEGESRGKYAYVKVNLDGLVVGRKVCLVDQGAYATLALQLNDMFGMQTVSGLRLFQTESEFSLVYRDREGIWRNVGDVPWKEFVESVDRMRIARRNDALLPF
B3: ARF6 790-935 (Arabidopsis thaliana, UniProt Q9ZTX8); chain SENPQSNTFVKVYKSGSFGRSLDISKFSSYHELRSELARMFGLEGQLEDPVRSGWQLVFVDRENDVLLLGDDPWPEFVSSVWCIKILSPQEVQQMGKRGLELLNSAPSSNNVDKLPSNGNCDDFGNRSDPRNLGNGIASVGGSFNY
B4: ARF5 788-902 (Arabidopsis thaliana, UniProt P93024); chain ATPRVRTYTKVQKTGSVGRSIDVTSFKDYEELKSAIECMFGLEGLLTHPQSSGWKLVYVDYESDVLLVGDDPWEEFVGCVRCIRILSPTEVQQMSEEGMKLLNSAGINDLKTSVS
B5: IAA33 (Arabidopsis thaliana, UniProt Q9FKM7); chain MNSFEPQSQDSLQRRFHQDNSTTQQPRDTTTPFIPKPASKNHNNSNSSSGAAGRSFQGFGLNVEDDLVSSVVPPVTVVLEGRSICQRISLDKHGSYQSLASALRQMFVDGADSTDDLDLSNAIPGHLIAYEDMENDLLLAGDLTWKDFVRVAKRIRILPVKGNTRQVKRNE
Target sequence (chain): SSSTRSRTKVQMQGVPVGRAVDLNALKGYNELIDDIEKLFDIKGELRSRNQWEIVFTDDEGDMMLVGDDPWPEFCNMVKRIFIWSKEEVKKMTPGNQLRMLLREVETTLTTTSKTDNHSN
| Sequence | positive tests |
| --- | --- |
| B1 (IAA34) | 4 |
| B2 (IAA32) | 3 |
| B3 (ARF6 790-935) | 2 |
| B4 (ARF5 788-902) | 1 |
| B5 (IAA33) | 0 |

Sample 2
Target: Centromere-binding protein 1, full length, N-terminal tag (CBF1, Saccharomyces cerevisiae, UniProt P17106, residues 1-351)
Chain of UniProt P17106 (whole entry, looked up): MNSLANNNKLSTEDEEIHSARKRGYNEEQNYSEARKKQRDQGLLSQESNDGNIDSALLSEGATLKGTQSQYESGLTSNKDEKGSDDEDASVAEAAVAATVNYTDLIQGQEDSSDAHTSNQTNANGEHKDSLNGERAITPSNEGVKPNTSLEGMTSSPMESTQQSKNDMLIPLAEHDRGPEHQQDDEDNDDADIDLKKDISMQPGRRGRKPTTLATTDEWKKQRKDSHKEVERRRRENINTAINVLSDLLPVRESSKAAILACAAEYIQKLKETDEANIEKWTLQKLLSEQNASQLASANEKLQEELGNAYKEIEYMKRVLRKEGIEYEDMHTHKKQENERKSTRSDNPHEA
Technique: protein-binding microarray
Form: double-stranded DNA, one strand shown
Matrix: in vitro
Concentration: 0.8 µM
Notes: whole 60-bp probe, no competitor
Direction: higher = stronger binding
Constant ends, left off below: … GTCTTGATTCGCTTGACGCTGCTG
| Strand | fluorescence intensity [a.u.] |
| --- | --- |
| CTAATAAAGGGAACACACGTGAAAGTGAAGGACTTC | 1840 |
| CTAACTATATTAATCCACGTTTTTCAAACATATTTC | 626 |
| GAACCTACCTTAAAACACGTTTCGTTTAAGACATAG | 612 |
| GAAACGAATAGTCATGATGCAATGTACCCTCATTAG | 545 |
| CTAAACATTCAATTCCTCACCTGGTGCGCACTTTTC | 543 |
| GAAATTAAATAAAAAAACGTGATAAGCACGTGGTAG | 7640 |
| GAACTATTGTCCTATCTGATGACACCTCAATATTAG | 563 |
| CTACATGATTATTGTGACCAGTAACATTTGCTGTTC | 534 |

Sample 3
Target: Prothrombin, mature alpha-thrombin (F2, Homo sapiens, UniProt P00734)
Technique: aptamer microarray, sandwich
Form: DNA with 2'F-ANA
Matrix: in vitro
Concentration: 200 nM
Notes: whole 15-mer aptamer, many near background
Added: Cy3 exosite-II aptamer, 400 nM
Direction: higher = stronger binding
Strand: GGTTGGTGTGGTTGG
| Modification | mean fluorescence intensity |
| --- | --- |
| 2'F-ANA at 2 3 5 6 7 10 12 13 15 | 86.5 a.u. |
| 2'F-ANA at 4 5 6 7 8 9 11 12 14 15 | 49.7 a.u. |
| 2'F-ANA at 1 2 5 7 8 9 10 15 | 46.5 a.u. |
| 2'F-ANA at 1 2 3 4 5 7 8 12 13 15 | 123 a.u. |
| 2'F-ANA at 1 2 3 4 9 10 11 15 | 59.6 a.u. |
| 2'F-ANA at 1 2 4 5 6 9 11 12 13 14 | 45.2 a.u. |
| 2'F-ANA at 1 4 5 6 8 14 | 47.4 a.u. |
| 2'F-ANA at 1 3 4 5 9 10 11 12 13 14 15 | 45.9 a.u. |

Further values, each from its own experiment
| Sequence | target | test | system | setting | quantity | value |
| --- | --- | --- | --- | --- | --- | --- |
| VVARLGVPY | HLA class I histocompatibility antigen, A alpha chain, allele A*80:01 (Homo sapiens, UniProt P04439) | peptide-MHC binding | peptide | concentration not given | binding | inactive |

Excerpt of the above (sample 2):
| Strand | fluorescence intensity [a.u.] |
| --- | --- |
| CTAAACATTCAATTCCTCACCTGGTGCGCACTTTTC | 543 |
| GAAATTAAATAAAAAAACGTGATAAGCACGTGGTAG | 7640 |
| GAACTATTGTCCTATCTGATGACACCTCAATATTAG | 563 |
